Earlier results that unrelated publications cite.
Compare with care: the assays were run in different laboratories. “And” joins repeats or separate records; there may be more than shown. Numbers after ± are the reported error. Ends that are not written are not given here.
Melanocortin receptor 4: Melanocortin receptor 4 (Mus musculus, UniProt P56450)
Sequence of UniProt P56450 (whole entry, looked up): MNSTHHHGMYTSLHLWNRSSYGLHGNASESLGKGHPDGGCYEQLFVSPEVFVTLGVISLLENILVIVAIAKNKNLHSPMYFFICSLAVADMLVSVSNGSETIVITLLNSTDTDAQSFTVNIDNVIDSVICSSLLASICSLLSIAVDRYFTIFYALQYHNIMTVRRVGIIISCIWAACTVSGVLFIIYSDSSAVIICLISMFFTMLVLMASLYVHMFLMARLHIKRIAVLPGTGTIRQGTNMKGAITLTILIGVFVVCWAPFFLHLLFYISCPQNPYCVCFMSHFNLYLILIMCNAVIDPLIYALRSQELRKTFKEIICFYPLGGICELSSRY
Sequence of UniProt P00698 (whole entry, looked up): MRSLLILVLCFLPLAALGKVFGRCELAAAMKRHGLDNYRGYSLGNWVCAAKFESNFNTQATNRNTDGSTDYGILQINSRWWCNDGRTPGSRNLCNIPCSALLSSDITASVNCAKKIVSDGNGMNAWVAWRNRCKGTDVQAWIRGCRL
Sequence of UniProt P0AES9 (whole entry, looked up): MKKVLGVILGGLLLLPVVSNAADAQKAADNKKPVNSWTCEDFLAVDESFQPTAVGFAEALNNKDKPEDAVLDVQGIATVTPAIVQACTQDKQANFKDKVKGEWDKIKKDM

C[C@@H](NCCCc1cccc(C(F)(F)F)c1)c1cccc2ccccc12 — time to iPTH nadir (human primary hyperparathyroidism; oral, dose not given, normal renal function): 4 h
CCCOc1ccc(S(=O)(=O)NCCC2CCCN2C)cc1-c1nc2c(CCC)nn(C)c2c(=O)[nH]1 (centres unmarked) — IIEF-EF score change (erectile dysfunction patients; dose not given, meta-analysis; baseline: placebo, direction not given): 5.65
C[C@]12CC=C3c4ccc(O)cc4CC[C@H]3[C@@H]1CC[C@@H]2O — IC50 (lipid peroxidation, TBARS; rat brain homogenate; with: 50 µM ferric ions): 4.92 µM
CN1CCC(c2ccccc2CC(C)(C)Nc2nc(N3CCOCC3)nc(-n3c(C(F)F)nc4ccccc43)n2)CC1 — EC90 (basophil activation, inhibitor, refers to: CD63; healthy human volunteers, plasma; oral, with: ex vivo stimulation): 0.009 µM
hdeA mature protein (Escherichia coli, UniProt P0AES9) — pKa (NMR, refers to: Asp83; 298 K, numbering of the source): 3.97
O=C1CC(c2ccc(O)cc2)Oc2cc(O)cc(O)c21 (centres unmarked) — blood glucose decrease (Wistar rat, normoglycaemic; oral gavage, 50 mg/kg, single dose): ~10%
COc1ccc(C2=N[C@@](C)(C(=O)[O-])CS2)c(O)c1.[Na+] — iron clearing efficiency (bile duct-cannulated rats, non iron-overloaded; oral, 300 µmol/kg, 24 h, monosodium salt): 6.6 ± 2.8%
CCC1(C)CC(=O)NC1=O (centres unmarked) — ED50 (protection from seizures; CF-1 mice, 6 Hz corneal stimulation; ip, with: 32 mA): 167 mg/kg
CN1CCN(c2ccc(C(=O)Nc3n[nH]c4ccc(Cc5cc(F)cc(F)c5)cc34)c(NC3CCOCC3)c2)CC1 — intracranial response rate (ROS1 NSCLC or NTRK tumour patients; dose not given): 55%
NCCCC[C@H](NC(=O)[C@@H]1CCCN1C(=O)[C@@H]1CSSC[C@H](NC(=O)CNC(=O)CNC(=O)CN)C(=O)N[C@@H](Cc2ccc(O)cc2)C(=O)N[C@@H](Cc2ccccc2)C(=O)N[C@@H](CCC(N)=O)C(=O)N[C@@H](CC(N)=O)C(=O)N1)C(=O)NCC(N)=O — relative dose for pressor effect (arterial blood pressure rise; rat; dose not given; baseline: lysine and arginine vasopressin): 100 fold
KCNTATCATQRLANFLVHSSNNFGPILPPTNVGSNTY (Pramlintide; not fully specified (C-terminus, bridges); cysteine pairing not given here; sequence looked up) — body weight loss (peptide, obese humans; 360 µg twice daily, 6 months, completers, with lifestyle intervention; baseline: baseline): 7 to 8%
leuprorelin — castration rate (refers to: serum testosterone; patients; dose not given, 24 weeks, 3-month formulation): 100%
CCCCCCCCCCCCCCCC(=O)N[C@@H](CCC(=O)NCCCC[C@H](NC(=O)[C@H](C)NC(=O)[C@H](C)NC(=O)[C@H](CCC(N)=O)NC(=O)CNC(=O)[C@H](CCC(=O)O)NC(=O)[C@H](CC(C)C)NC(=O)[C@H](Cc1ccc(O)cc1)NC(=O)[C@H](CO)NC(=O)[C@H](CO)NC(=O)[C@@H](NC(=O)[C@H](CC(=O)O)NC(=O)[C@H](CO)NC(=O)[C@@H](NC(=O)[C@H](Cc1ccccc1)NC(=O)[C@@H](NC(=O)CNC(=O)[C@H](CCC(=O)O)NC(=O)[C@H](C)NC(=O)[C@@H](N)Cc1c[nH]cn1)[C@@H](C)O)[C@@H](C)O)C(C)C)C(=O)N[C@@H](CCC(=O)O)C(=O)N[C@@H](Cc1ccccc1)C(=O)N[C@H](C(=O)N[C@@H](C)C(=O)N[C@@H](Cc1c[nH]c2ccccc12)C(=O)N[C@@H](CC(C)C)C(=O)N[C@H](C(=O)N[C@@H](CCCNC(=N)N)C(=O)NCC(=O)N[C@@H](CCCNC(=N)N)C(=O)NCC(=O)O)C(C)C)[C@@H](C)CC)C(=O)O — concentration for full glycaemic response (obese or overweight adults, type 2 diabetes, plasma): ~15 nM
C[C@]12CCC[C@@H]1[C@H]1CCc3cc(O)ccc3[C@@H]1CC2 (single isomer, unassigned) — IC50 (lipid peroxidation, TBARS; rat brain homogenate; with: 50 µM ferric ions): 9.17 µM
CCCc1nn(C)c2c(=O)[nH]c(-c3cc(S(=O)(=O)N4CCN(C)CC4)ccc3OCC)nc12 — blood pressure reduction (ambulatory blood pressure monitoring, refers to: DBP; healthy and hypertensive humans; 100 mg, evening dosing): -4.5 mmHg
CN1CCN(CCOc2cc(OC3CCOCC3)c3c(Nc4c(Cl)ccc5c4OCO5)ncnc3c2)CC1 — median progression-free survival (human platinum-sensitive ovarian cancer; dose not given, with: paclitaxel and carboplatin): 8.3 months
NC(=O)N1c2ccccc2C=Cc2ccccc21 — ED50 (protection against seizures; male NMRI mouse; MES-induced seizures): 13.5 mg/kg
CC(=O)Oc1ccccc1C(=O)O — breast cancer risk reduction (postmenopausal women; dose not given, long-term regular use): 21%
infliximab — trough level threshold for response (human, rheumatoid arthritis, serum): 1 µg/mL
C[C@]12CC[C@@H]3c4ccc(O)cc4CC[C@H]3[C@@H]1CC[C@H]2O — mean ischemic area (rat transient MCA occlusion; dose not given, 24 h pretreatment): 6.3 ± 2.3%
O=C(O)c1cc(O)c(O)c(O)c1 — IC50 (superoxide scavenging, PMS-NADH system): 29 µM
CN(C)C(=O)c1cc2cnc(Nc3ccc(N4CCNCC4)cn3)nc2n1C1CCCC1 — median progression-free survival (recurrent glioblastoma patients; dose not given, continued after surgery): 9.7 weeks
CC(C)(O)CCn1cc2cc(NC(=O)c3cccc(C(F)(F)F)n3)c(C(C)(C)O)cc2n1 — inhibition (TNF-alpha release; healthy male human, whole blood; 400 mg daily, 10 days, with: LPS 0.1 ng/mL for 6 h): 70%
CO[C@H]1C[C@@H]2CC[C@@H](C)[C@@](O)(O2)C(=O)C(=O)N2CCCC[C@H]2C(=O)O[C@H]([C@H](C)C[C@@H]2CC[C@@H](OCCO)[C@H](OC)C2)CC(=O)[C@H](C)/C=C(\C)[C@@H](O)[C@@H](OC)C(=O)[C@H](C)C[C@H](C)/C=C/C=C/C=C/1C — response rate (human, breast cancer; 70 mg weekly): 0%
CC(=O)O[C@H]1CC[C@@]2(C)C(=CC[C@@H]3[C@@H]2CC[C@]2(C)C(c4cccnc4)=CC[C@@H]32)C1 — overall survival gain (human mCRPC, post-chemotherapy; dose not given, with: prednisone; baseline: prednisone alone): 3.9 months
C[C@]12CC[C@@H]3c4ccc(O)cc4CC[C@H]3[C@@H]1CC[C@@H]2OC(=O)c1ccccc1 — IC50 (lipid peroxidation, TBARS; rat brain homogenate; with: 50 µM ferric ions): 14.9 µM
LYZ (Gallus gallus, UniProt P00698) — pKa (NMR, refers to: Asp119; NaCl 100 mM, numbering of the source): 3.5
CC(C)C[C@H]1C(=O)N2CCC[C@H]2[C@]2(O)O[C@](NC(=O)[C@@H]3C=C4c5cccc6[nH]c(Br)c(c56)C[C@H]4N(C)C3)(C(C)C)C(=O)N12 — reduction in cardiovascular events (human type 2 diabetes patients; dose not given): 40%
bevacizumab — objective response rate (human, platinum-resistant recurrent ovarian cancer; dose not given, with: chemotherapy): 27.3%
CN(C)CCCC1(c2ccc(F)cc2)OCc2cc(C#N)ccc21 (centres unmarked) — Km (substrate, refers to: DCIT; human liver microsomes): 174 µM
Nc1nc(Cl)nc2c1ncn2[C@H]1C[C@H](O)[C@@H](CO)O1 — partial remission rate (paediatric AML patients; dose not given, before induction therapy): 32%
Clc1ccc2c(N3CCN(CCCN4CCN(c5ccnc6cc(Cl)ccc56)CC4)CC3)ccnc2c1 — curative dose (mouse malaria model; oral, single dose): 16 mg/kg
CCC(C)c1c(O)ccc2c1CC[C@@H]1[C@@H]2CC[C@]2(C)C(=O)CC[C@@H]12 (some centres unmarked) — IC50 (lipid peroxidation, TBARS; rat brain homogenate; with: 50 µM ferric ions): 4.91 µM
COc1cccc2c1C(=O)c1c(O)c3c(c(O)c1C2=O)C[C@@](O)(C(=O)CO)C[C@@H]3O[C@H]1C[C@H](N)[C@H](O)[C@H](C)O1 — brain metastases with cytotoxicity (mouse brain metastasis model; dose not given, highest drug concentration subset): 10%
SSRRCVRLHESCLGQQVPCCDPCATCYCRFFNAFCYCRKLGTAMNPCSRT (agouti-related protein; ends and bridges not checked; cysteine pairing not given here; sequence looked up) — potency ratio (Melanocortin receptor 4; baseline: mouse MC4R over mouse MC3R): ~10 fold
CN[C@H]1C(=O)N[C@@H]2Cc3ccc(cc3)Oc3cc4cc(c3O[C@@H]3O[C@H](C(=O)O)[C@@H](O)[C@H](O)[C@H]3NC(=O)CCCCCCCCC(C)C)Oc3ccc(cc3Cl)[C@@H](O)[C@@H]3NC(=O)[C@H](NC(=O)[C@@H]4NC(=O)[C@@H](NC2=O)c2cc(cc(O)c2Cl)Oc2cc1ccc2O)c1ccc(O)c(c1)-c1c(O[C@H]2O[C@H](CO)[C@@H](O)[C@H](O)[C@@H]2O)cc(O)cc1[C@@H](C(=O)NCCCN(C)C)NC3=O — clinical response rate (human, ABSSSI, microbiological ITT population; dose not given, 48 to 72 h, double-dose regimen): 98.6%
Nc1nnc(-c2cccc(Cl)c2Cl)c(N)n1 — ED50 (protection from seizures; CF-1 mice, 6 Hz corneal stimulation; ip, with: 22 mA): 4.4 mg/kg
NC(=O)N1c2ccccc2C[C@H](O)c2ccccc21 — ED50 (protection against seizures; male NMRI mouse; MES-induced seizures): 27.8 mg/kg
insulin glulisine — Cmax (refers to: total insulin; human; subcutaneous thigh, 0.2 U/kg, dose-adjusted from 0.1 U/kg): 0.684 nM
CC(=O)Oc1ccccc1C(=O)O — reduction in metastasis risk (human colon cancer patients; low dose, cancer detected during treatment): 83%
C[C@]12CC[C@@H]3c4ccc(O)cc4CC[C@H]3[C@@H]1CCC2=O — IC50 (lipid peroxidation, TBARS; rat brain homogenate; with: 50 µM ferric ions): 80.8 µM
CC1=C(/C=C/C(C)=C/C=C/C(C)=C\C(=O)O)C(C)(C)CCC1 — 3-year event-free survival (human, high-risk neuroblastoma; oral, 80 mg/m2 twice daily, 2 weeks monthly for 6 months, after consolidation): 45%
Nc1ncn([C@@H]2O[C@H](CO)[C@@H](O)[C@H]2O)c(=O)n1 — stable disease (human advanced solid tumour patients; 20 to 25 mg/m^2 daily, 10 days): 35%
oxytocin — CSF concentration (rhesus monkey, cerebrospinal fluid; intranasal aerosol, 24 IU, 60 and 120 min): ~70 pg/mL
CC[C@H](C)[C@@H]1NC(=O)[C@H](CCCNC(=N)N)NC(=O)[C@H](CC(=O)O)NC(=O)[C@H](CC(C)C)NC(=O)[C@H](CCCCN)NC(=O)[C@H](CC(C)C)NC(=O)CNC(=O)[C@H](Cc2ccccc2)NC(=O)[C@@H](NC(=O)CNC(=O)[C@H](CCCCN)NC(=O)[C@H](CO)NC(=O)[C@H](CC(C)C)NC(=O)CNC(=O)[C@H](CCCCN)NC(=O)[C@H](CCCCN)NC(=O)[C@H](CC(N)=O)NC(=O)[C@H](C)NC(=O)CNC(=O)[C@H](CCCCN)NC(=O)[C@H](Cc2ccc(O)cc2)NC(=O)[C@H](CCCCN)NC(=O)[C@H](CCCNC(=N)N)NC(=O)[C@H](C)NC(=O)[C@H](CC(N)=O)NC(=O)[C@@H]2CCCN2C(=O)[C@H](Cc2c[nH]cn2)NC(=O)[C@H](CCC(=O)O)NC(=O)[C@H](CCC(N)=O)NC(=O)CNC(=O)[C@@H]2CCCN2)CSSC[C@@H](C(=O)O)NC(=O)CNC(=O)[C@H](CC(C)C)NC(=O)CNC(=O)[C@H](CO)NC(=O)[C@H](CCSC)NC(=O)[C@H](CO)NC(=O)CNC1=O — difference in annualized growth velocity (human, achondroplasia; sc, 15 µg/kg daily, 52 weeks, phase III; baseline: placebo): 1.57 cm/year
CNC(=C[N+](=O)[O-])NCCSCc1ccc(CN(C)C)o1 — anti-tumour antibody response (mice, E0771-GFP or 4T1 tumours; oral, drinking water, 8 mg/kg, 21 days): increased
O=c1c(O)c(-c2ccc(O)c(O)c2)oc2cc(O)ccc12 — IC50 (hydroxyl radical scavenging): 3 to 5 µM
CVRLHESCLGQQVPCCDPCATCYCRFFNAFCYCR (agouti-related protein (87–120); sequence looked up) — Ki (Melanocortin receptor 4; antagonist, cAMP; peptide): 0.0032 µM
NC(=S)NN=Cc1ncccc1N — stable disease (pretreated advanced cancer patients; intravenous, dose not given, trials, single agent): 16% and 30%
CN1CC[C@H](c2c(O)cc(O)c3c(=O)cc(-c4ccccc4Cl)oc23)[C@H](O)C1 — disease-free interval (human; intravenous infusion, dose not given, after stopping therapy): 48 months

Repeated from above:
C[C@]12CC[C@@H]3c4ccc(O)cc4CC[C@H]3[C@@H]1CCC2=O — IC50 (lipid peroxidation, TBARS; rat brain homogenate; with: 50 µM ferric ions): 80.8 µM
CC1=C(/C=C/C(C)=C/C=C/C(C)=C\C(=O)O)C(C)(C)CCC1 — 3-year event-free survival (human, high-risk neuroblastoma; oral, 80 mg/m2 twice daily, 2 weeks monthly for 6 months, after consolidation): 45%
Nc1ncn([C@@H]2O[C@H](CO)[C@@H](O)[C@H]2O)c(=O)n1 — stable disease (human advanced solid tumour patients; 20 to 25 mg/m^2 daily, 10 days): 35%
oxytocin — CSF concentration (rhesus monkey, cerebrospinal fluid; intranasal aerosol, 24 IU, 60 and 120 min): ~70 pg/mL
CC[C@H](C)[C@@H]1NC(=O)[C@H](CCCNC(=N)N)NC(=O)[C@H](CC(=O)O)NC(=O)[C@H](CC(C)C)NC(=O)[C@H](CCCCN)NC(=O)[C@H](CC(C)C)NC(=O)CNC(=O)[C@H](Cc2ccccc2)NC(=O)[C@@H](NC(=O)CNC(=O)[C@H](CCCCN)NC(=O)[C@H](CO)NC(=O)[C@H](CC(C)C)NC(=O)CNC(=O)[C@H](CCCCN)NC(=O)[C@H](CCCCN)NC(=O)[C@H](CC(N)=O)NC(=O)[C@H](C)NC(=O)CNC(=O)[C@H](CCCCN)NC(=O)[C@H](Cc2ccc(O)cc2)NC(=O)[C@H](CCCCN)NC(=O)[C@H](CCCNC(=N)N)NC(=O)[C@H](C)NC(=O)[C@H](CC(N)=O)NC(=O)[C@@H]2CCCN2C(=O)[C@H](Cc2c[nH]cn2)NC(=O)[C@H](CCC(=O)O)NC(=O)[C@H](CCC(N)=O)NC(=O)CNC(=O)[C@@H]2CCCN2)CSSC[C@@H](C(=O)O)NC(=O)CNC(=O)[C@H](CC(C)C)NC(=O)CNC(=O)[C@H](CO)NC(=O)[C@H](CCSC)NC(=O)[C@H](CO)NC(=O)CNC1=O — difference in annualized growth velocity (human, achondroplasia; sc, 15 µg/kg daily, 52 weeks, phase III; baseline: placebo): 1.57 cm/year
